Measured values from different studies.
Numbered parts are unrelated; each lists some results of a single study. Several values in a cell are separate wells, animals, samples, runs or records.
UniProt P10721, sequence (whole entry, unmodified, looked up): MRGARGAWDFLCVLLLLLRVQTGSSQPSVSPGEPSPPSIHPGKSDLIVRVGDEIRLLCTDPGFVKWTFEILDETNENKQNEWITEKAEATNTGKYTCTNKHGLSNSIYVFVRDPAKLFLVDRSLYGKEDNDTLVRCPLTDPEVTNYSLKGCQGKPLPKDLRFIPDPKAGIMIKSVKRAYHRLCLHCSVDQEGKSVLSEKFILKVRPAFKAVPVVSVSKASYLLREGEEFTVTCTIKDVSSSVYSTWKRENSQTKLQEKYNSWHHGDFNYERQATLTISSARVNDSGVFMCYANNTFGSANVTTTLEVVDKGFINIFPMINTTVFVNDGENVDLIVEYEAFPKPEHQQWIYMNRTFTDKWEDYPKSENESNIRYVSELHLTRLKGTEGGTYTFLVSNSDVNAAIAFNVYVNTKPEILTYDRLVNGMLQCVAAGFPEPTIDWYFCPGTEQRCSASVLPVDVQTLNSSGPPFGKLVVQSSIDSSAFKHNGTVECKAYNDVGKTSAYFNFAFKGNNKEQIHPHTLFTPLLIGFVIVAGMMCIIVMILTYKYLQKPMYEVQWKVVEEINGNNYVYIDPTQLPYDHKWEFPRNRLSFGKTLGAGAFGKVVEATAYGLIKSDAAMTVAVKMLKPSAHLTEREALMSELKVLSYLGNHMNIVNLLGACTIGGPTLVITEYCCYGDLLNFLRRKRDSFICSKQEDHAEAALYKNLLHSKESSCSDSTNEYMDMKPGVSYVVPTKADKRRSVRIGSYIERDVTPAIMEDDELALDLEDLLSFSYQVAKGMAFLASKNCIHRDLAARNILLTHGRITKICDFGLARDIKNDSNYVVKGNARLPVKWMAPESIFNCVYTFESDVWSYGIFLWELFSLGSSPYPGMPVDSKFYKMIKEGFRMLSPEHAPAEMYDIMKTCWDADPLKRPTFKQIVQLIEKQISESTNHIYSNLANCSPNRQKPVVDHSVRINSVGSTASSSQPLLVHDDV
UniProt P14616, sequence (whole entry, looked up): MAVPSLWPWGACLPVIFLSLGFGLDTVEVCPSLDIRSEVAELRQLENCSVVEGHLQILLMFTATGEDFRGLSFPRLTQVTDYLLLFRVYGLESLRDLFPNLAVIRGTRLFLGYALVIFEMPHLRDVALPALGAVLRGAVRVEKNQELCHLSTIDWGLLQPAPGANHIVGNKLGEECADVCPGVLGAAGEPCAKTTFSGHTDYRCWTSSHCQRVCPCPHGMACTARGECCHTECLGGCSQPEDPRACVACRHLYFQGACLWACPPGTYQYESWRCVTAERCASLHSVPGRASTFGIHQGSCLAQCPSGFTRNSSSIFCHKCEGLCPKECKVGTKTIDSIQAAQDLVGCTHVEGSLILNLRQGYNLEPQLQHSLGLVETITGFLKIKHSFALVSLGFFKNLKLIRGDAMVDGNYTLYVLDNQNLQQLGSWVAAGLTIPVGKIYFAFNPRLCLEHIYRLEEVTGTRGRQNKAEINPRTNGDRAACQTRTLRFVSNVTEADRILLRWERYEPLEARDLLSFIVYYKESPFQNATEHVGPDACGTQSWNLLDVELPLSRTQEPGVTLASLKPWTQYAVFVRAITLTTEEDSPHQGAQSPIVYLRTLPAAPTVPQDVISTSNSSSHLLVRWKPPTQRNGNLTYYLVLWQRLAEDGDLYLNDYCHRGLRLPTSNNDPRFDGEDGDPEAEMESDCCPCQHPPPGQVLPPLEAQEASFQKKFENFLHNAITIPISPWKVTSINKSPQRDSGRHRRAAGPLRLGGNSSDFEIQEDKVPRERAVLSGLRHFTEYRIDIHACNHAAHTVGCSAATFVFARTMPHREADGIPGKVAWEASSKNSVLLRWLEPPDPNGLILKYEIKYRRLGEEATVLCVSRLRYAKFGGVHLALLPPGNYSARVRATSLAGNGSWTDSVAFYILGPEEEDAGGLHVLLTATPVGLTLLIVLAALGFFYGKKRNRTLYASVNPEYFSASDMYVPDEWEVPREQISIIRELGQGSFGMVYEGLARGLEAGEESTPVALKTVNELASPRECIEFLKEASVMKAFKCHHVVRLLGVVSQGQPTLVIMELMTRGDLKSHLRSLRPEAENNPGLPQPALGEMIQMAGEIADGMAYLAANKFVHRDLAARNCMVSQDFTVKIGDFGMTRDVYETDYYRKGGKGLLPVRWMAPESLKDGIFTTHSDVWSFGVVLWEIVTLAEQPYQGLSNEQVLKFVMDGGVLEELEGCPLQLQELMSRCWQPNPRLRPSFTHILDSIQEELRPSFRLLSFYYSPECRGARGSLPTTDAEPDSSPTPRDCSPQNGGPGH
UniProt P41240, sequence (whole entry, looked up): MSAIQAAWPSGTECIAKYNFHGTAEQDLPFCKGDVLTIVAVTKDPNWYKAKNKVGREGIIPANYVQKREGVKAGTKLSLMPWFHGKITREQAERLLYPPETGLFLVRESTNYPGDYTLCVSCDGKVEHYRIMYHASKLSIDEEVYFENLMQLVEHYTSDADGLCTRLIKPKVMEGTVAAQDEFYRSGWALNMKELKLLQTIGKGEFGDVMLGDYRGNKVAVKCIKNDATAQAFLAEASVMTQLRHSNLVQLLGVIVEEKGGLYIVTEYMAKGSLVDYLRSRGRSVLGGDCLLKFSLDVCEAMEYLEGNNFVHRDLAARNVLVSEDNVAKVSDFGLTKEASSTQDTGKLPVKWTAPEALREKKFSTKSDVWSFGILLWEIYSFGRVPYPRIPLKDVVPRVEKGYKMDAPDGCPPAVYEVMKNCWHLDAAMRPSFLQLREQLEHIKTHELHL
UniProt O15530, sequence (whole entry, looked up): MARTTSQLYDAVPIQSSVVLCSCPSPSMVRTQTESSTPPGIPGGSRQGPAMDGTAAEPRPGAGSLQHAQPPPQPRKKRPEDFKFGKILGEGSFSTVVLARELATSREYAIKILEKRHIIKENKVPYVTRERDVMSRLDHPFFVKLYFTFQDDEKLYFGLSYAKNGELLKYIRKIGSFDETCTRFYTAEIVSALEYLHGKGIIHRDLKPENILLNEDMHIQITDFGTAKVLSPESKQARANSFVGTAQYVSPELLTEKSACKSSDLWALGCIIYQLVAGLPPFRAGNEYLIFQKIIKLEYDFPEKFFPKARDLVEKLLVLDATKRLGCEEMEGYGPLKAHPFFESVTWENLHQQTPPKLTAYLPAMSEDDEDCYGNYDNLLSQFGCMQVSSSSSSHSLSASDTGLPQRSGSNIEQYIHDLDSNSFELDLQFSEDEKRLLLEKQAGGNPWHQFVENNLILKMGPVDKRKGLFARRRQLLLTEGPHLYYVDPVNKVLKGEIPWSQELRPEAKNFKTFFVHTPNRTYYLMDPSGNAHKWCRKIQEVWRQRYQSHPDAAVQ
UniProt Q13233, sequence (whole entry, looked up): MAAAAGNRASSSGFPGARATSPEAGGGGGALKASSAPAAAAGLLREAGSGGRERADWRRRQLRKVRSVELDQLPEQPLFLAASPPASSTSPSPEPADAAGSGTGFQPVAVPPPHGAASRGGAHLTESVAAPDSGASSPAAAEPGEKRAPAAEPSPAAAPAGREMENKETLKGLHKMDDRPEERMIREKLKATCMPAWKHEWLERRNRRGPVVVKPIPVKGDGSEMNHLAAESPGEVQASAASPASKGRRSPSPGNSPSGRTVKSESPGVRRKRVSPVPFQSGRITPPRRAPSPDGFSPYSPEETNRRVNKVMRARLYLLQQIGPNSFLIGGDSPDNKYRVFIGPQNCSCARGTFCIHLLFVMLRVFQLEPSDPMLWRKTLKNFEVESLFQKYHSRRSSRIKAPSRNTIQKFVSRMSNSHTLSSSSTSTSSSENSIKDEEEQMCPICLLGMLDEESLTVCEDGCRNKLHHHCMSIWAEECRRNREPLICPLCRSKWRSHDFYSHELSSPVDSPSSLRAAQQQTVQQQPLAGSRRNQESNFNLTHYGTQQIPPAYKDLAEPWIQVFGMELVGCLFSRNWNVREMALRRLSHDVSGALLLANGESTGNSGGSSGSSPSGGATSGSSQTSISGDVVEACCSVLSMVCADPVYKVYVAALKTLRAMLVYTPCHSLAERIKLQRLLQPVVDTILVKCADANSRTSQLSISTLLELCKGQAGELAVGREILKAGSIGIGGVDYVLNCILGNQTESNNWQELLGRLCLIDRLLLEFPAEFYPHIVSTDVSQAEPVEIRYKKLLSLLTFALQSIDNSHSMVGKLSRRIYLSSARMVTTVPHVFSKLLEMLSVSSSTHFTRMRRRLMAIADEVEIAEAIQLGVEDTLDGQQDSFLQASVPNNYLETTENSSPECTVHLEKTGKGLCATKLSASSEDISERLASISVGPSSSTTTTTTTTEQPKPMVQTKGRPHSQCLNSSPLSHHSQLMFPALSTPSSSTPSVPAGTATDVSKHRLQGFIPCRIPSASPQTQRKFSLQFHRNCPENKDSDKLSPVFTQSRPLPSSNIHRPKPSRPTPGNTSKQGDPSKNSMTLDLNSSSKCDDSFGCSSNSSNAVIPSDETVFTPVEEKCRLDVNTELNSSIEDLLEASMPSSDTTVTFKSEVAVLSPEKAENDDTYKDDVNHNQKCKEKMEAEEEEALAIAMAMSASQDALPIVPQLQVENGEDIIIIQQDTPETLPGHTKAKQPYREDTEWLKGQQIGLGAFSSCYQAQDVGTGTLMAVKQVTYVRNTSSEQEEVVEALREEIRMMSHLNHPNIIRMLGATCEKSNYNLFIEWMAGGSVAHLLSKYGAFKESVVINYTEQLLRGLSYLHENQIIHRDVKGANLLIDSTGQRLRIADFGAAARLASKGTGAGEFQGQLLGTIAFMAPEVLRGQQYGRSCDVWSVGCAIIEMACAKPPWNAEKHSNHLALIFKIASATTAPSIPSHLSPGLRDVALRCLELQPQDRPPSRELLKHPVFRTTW
UniProt P11309, sequence (whole entry, looked up): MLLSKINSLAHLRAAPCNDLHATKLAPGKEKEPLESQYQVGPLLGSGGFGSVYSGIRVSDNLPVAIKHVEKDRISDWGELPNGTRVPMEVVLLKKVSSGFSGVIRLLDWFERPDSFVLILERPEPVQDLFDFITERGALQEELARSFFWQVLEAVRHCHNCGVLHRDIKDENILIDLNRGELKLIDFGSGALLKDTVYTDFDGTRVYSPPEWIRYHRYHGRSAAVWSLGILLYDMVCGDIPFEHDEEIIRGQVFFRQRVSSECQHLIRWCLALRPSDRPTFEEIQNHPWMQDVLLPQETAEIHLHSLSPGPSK

Set 1 — technique: protein-binding microarray; molecule type: double-stranded DNA, one strand shown; matrix: in vitro; concentration: 940 nM top; notes: 60-bp whole probe; added: salmon DNA 0.4 mg/ml; baseline: random background probes; reading: higher = stronger binding; all sequences stand within: GCCTAGCAC … GTCTTGATTCGCTTGACGCTGCTG
Target: Interferon regulatory factor 5, full length, phosphomimetic (IRF5, Homo sapiens, UniProt Q13568-2, residues 1-514, S451D/S453D/S456D/S462D)
For `GGTGCTGTTTACATAGTTCTGTGCTAG`, “fitted relative affinity” read -0.192 z-score.
`GACGAACTGGGGTTCCGAGACGTGCTA` — result for “fitted relative affinity”: -0.226 z-score.
For `TTAGGTTTCTACTATCGGTTAGTGCTA`, “fitted relative affinity” read 3.75 z-score.
For `TCACATGTAAATAATCAGACTGTGCTA`, “fitted relative affinity” read 0.00744 z-score.
`GAAGGTCTCCTTCTCCTGACGTGCTAG`: “fitted relative affinity” -0.0754 z-score.
Under “fitted relative affinity”, `TTAGATTTCAGATTGGATTAGTGCTAG` is recorded as 0.0745 z-score.
`TTAGGACTGCTTCGCCTTTAGTGCTAG` — result for “fitted relative affinity”: -0.415 z-score.
Under “fitted relative affinity”, `GACGATTCCCTTTTCCTGACGTGCTAG` is recorded as 0.791 z-score.

Set 2 — cell line: mouse MPNST tumor cells; technique: high-content nuclear imaging; refers to: cell number; concentration: 10 µM; time: 12 h; notes: mean of 2 replicates; baseline: plate mean; reading: higher = more cells
For `CN(CCCN1c2ccccc2CCc2ccccc21)CC(=O)c1ccc(Cl)cc1`, the nuclei count was 3.89 z-score.
For `Cc1cc(=O)n(-c2ccccc2)n1C`, the nuclei count was 2.72 z-score.
For `O=C(CCCCCCC(=O)Nc1ccccc1)NO`, the nuclei count was 0.153 z-score and -0.711 z-score and 0.814 z-score.

Set 3 — read-out: cell-free assay; technique: competition with immobilised ligand; concentration: 1 µM
SMILES: CCS(=O)(=O)c1cc2cc(C[C@](O)(CC(C)(C)c3ccc(F)cc3C(N)=O)C(F)(F)F)[nH]c2cn1
The remaining binding was 100% (PDPK1 (Homo sapiens, UniProt O15530)).
INSRR (Homo sapiens, UniProt P14616) — remaining binding: 100%.
STK32C (Homo sapiens, UniProt Q86UX6) — remaining binding: 100%.
It gave 87% for remaining binding (MAP3K1 (Homo sapiens, UniProt Q13233)).
For PIK3CA (Homo sapiens, UniProt P42336, E545A): remaining binding read 100%.
The remaining binding was 100% (CSK (Homo sapiens, UniProt P41240)).
It gave 100% for remaining binding (ERBB2 (Homo sapiens, UniProt P04626)).
The remaining binding was 100% (KIT (Homo sapiens, UniProt P10721, T670I/V559D)).
PRKACA (Homo sapiens, UniProt P17612) — remaining binding: 100%.
It gave 100% for remaining binding (PIM1 (Homo sapiens, UniProt P11309)).
It gave 83% for remaining binding (SRMS (Homo sapiens, UniProt Q9H3Y6)).
Mast/stem cell growth factor receptor Kit, autoinhibited (KIT, Homo sapiens, UniProt P10721) — remaining binding: 89%.

Other studies, line by line
`CN([C@@H](Cc1ccc(OS(=O)(=O)c2cccc3cnccc23)cc1)C(=O)N1CCN(c2ccccc2)CC1)S(=O)(=O)c1cccc2cnccc12` gave a Gini score of 0.7 (panel of 300 human kinases; 0.5 µM; higher = more selective).
`Cc1ccn(-c2ccc(NS(=O)(=O)c3ccc4c(c3)Cc3ccccc3-4)cc2)n1` gave a remaining compound of 34% (mouse, microsomes or S9; 2 µM, 0.5 h).
